Measured values of several laboratories.
Each line is one published result; not all experiments were run side by side.
Organism: Escherichia coli

| Compound | test | test system | conditions | MIC |
| --- | --- | --- | --- | --- |
| CC[C@H](C)[C@H](NC(=O)[C@H](Cc1ccc(O)cc1)NC(=O)[C@@H](NC(=O)[C@@H]1CCCN1C(=O)[C@H](CCCNC(=N)N)NC(=O)[C@H](CC(N)=O)NC(=O)[C@H](CC(N)=O)NC(=O)CNC(=O)CCCCCNC(=O)CCCC[C@@H]1SC[C@@H]2NC(=O)N[C@@H]21)C(C)C)C(=O)N1CCC[C@H]1C(=O)N[C@@H](CCC(N)=O)C(=O)N1CCC[C@H]1C(=O)N[C@@H](CCCNC(=N)N)C(=O)N1CCC[C@H]1C(=O)N1CCC[C@H]1C(=O)N[C@@H](Cc1c[nH]cn1)C(=O)N1CCC[C@H]1C(=O)N[C@@H](CCCNC(=N)N)C(=O)N[C@@H](CC(C)C)C(=O)O | broth microdilution | M/14072, Mueller-Hinton broth |  | > 160 µM |
| CCCCCCCC(=O)N[C@@H](CCN)C(=O)N[C@H](C(=O)N[C@@H](CCN)C(=O)N[C@H]1CCNC(=O)[C@H]([C@@H](C)O)NC(=O)[C@H](CCN)NC(=O)[C@H](CCN)NC(=O)[C@H](Cc2ccc(Br)cc2)NC(=O)[C@@H](CC(C)C)NC(=O)[C@H](CCN)NC1=O)[C@@H](C)O | broth microdilution | ATCC 25922, colistin-susceptible |  | 0.25 to 0.5 µg/mL |
| CC[C@H](C)[C@H](NC(=O)[C@@H](NC(=O)[C@H](CCCCN)NC(=O)[C@H](CCCCN)NC(=O)[C@@H](NC(=O)[C@H](Cc1c[nH]c2ccccc12)NC(=O)[C@H](CCCCN)NC(=O)[C@H](Cc1c[nH]c2ccccc12)NC(=O)[C@H](CC(C)C)NC(=O)[C@H](CCCCN)NC(=O)[C@H](CCCCN)NC(=O)[C@@H](N)C(C)C)[C@@H](C)CC)C(C)C)C(N)=O |  |  | 24 h, 37 °C, Mueller-Hinton broth, MgCl2 1 mM | 32 µM |
| CO[C@@H](C(N)=O)[C@H](NC(=O)c1ccc(NC(=O)[C@@H](N)Cc2ccccc2)cc1)C(=O)Nc1ccc(C(=O)Nc2ccc(C(=O)Nc3ccc(C(=O)O)c(O)c3OC(C)C)c(O)c2OC(C)C)cc1 |  | MerR family clone | 16 h, 37 °C | > 2 µg/mL |
| CC(C)C[C@H](NC(=O)[C@@H](NC(=O)[C@H](CCCCN)NC(=O)[C@H](CCCCN)NC(=O)[C@H](CC(C)C)NC(=O)[C@H](Cc1c[nH]c2ccccc12)NC(=O)[C@H](CCCCN)NC(=O)[C@H](Cc1c[nH]c2ccccc12)NC(=O)[C@H](CC(C)C)NC(=O)[C@H](CCCCN)NC(=O)[C@H](CCCCN)NC(=O)[C@@H](N)C(C)C)C(C)C)C(N)=O |  |  | 24 h, 37 °C, Mueller-Hinton broth, NH4Cl 6 µM | 16 µM |
| CC1(C)[C@H](NC(=O)/C(=N\OCc2c(Cl)cccc2Cl)c2csc(N)n2)C(=O)N1OS(=O)(=O)O | agar dilution | 08-85, mcr-1 |  | 8 µg/mL |
| CC(C)C[C@@H]1NC(=O)[C@H](CCCNC(=N)N)NC(=O)[C@H](CCCNC(=N)N)NC(=O)[C@@H](NC(=O)[C@@H](N)CCC(=O)O)CSSC[C@@H](C(=O)N[C@@H](CCCNC(=N)N)C(=O)NCC(=O)N[C@@H](CCCNC(=N)N)C(N)=O)NC(=O)[C@H](Cc2ccc(O)cc2)NC(=O)[C@H]([C@@H](C)O)NC(=O)[C@H](C(C)C)NC(=O)[C@@H]2CSSC[C@H](NC1=O)C(=O)N[C@@H](Cc1ccc(O)cc1)C(=O)N[C@@H](CCCCN)C(=O)N[C@@H](CCC(N)=O)C(=O)N[C@@H](CCCNC(=N)N)C(=O)N2 | bacterial growth, broth dilution, OD600 | DH5α, LB medium | 16 h, 37 °C | 25 µM |
| CC[C@H](C)[C@H](NC(=O)[C@@H](CCCNC(=N)N)NC(=O)[C@H](CCCNC(=N)N)NC(=O)[C@@H]1CCCN1C(=O)[C@@H]1CCCN1C(=O)[C@H](CCCNC(=N)N)NC(=O)[C@@H]1CCCN1C(=O)[C@H](CCCNC(=N)N)NC(=O)[C@@H]1CCCN1C(=O)[C@H](CC(C)C)NC(=O)[C@H](Cc1ccc(O)cc1)NC(=O)[C@@H]1CCCN1C(=O)[C@@H]1CCCN1C(=O)[C@H](CCCCN)NC(=O)[C@H](CC(=O)O)NC(=O)[C@@H](N)C(C)C)C(=O)N[C@@H](Cc1ccc(O)c([N+](=O)[O-])c1)C(=O)N[C@@H](CC(N)=O)C(=O)N[C@H](CCCNC(=N)N)C(N)=O | broth microdilution | ATCC 25922 | 18 h, 37 °C, 25% MHB2 | 16 µg/mL |
| C=C1NC(=O)C2C[S+]([O-])CC3NC(=O)C(CSC(C)C(NC(=S)C(Cc4cnc[nH]4)NC(=O)c4csc(C(C)NC(C)=O)n4)C(=O)N[C@H](CC(C)C(=O)NC(=O)CC(C(=O)O)NC(=O)C(C)NC3=O)C(=O)N2)NC(=O)[C@@H]2CCCN2C(=O)[C@@H](CC(C)C)NC1=O (stereo partly shown) | bacterial growth | ATCC 25922 |  | > 32 µg/mL |
| CC[C@H](C)[C@H](NC(=O)[C@@H]1CCCN1C(=O)CNC(=O)[C@H](CC(C)C)NC(=O)[C@H](CCCCN)NC(=O)[C@H](CCCNC(=N)N)NC(=O)[C@H](Cc1c[nH]c2ccccc12)NC(=O)[C@H](C)NC(=O)[C@H](CC(N)=O)NC(=O)[C@H](CCCCN)NC(=O)[C@H](CC(C)C)NC(=O)[C@H](CCCCN)NC(=O)[C@H](CC(N)=O)NC(=O)[C@H](CCCNC(=N)N)NC(=O)[C@H](C)NC(=O)[C@H](CCCNC(=N)N)NC(=O)[C@H](CCCNC(=N)N)NC(=O)[C@H](Cc1ccccc1)NC(=O)[C@H](Cc1c[nH]c2ccccc12)NC(=O)CN)C(=O)N[C@H](C(=O)NCC(=O)N1CCC[C@H]1C(=O)N[C@@H](CC(C)C)C(=O)N[C@@H](CC(C)C)C(=O)N[C@H](C(=O)N[C@@H](CCCNC(=N)N)C(=O)O)[C@@H](C)O)C(C)C | broth microdilution | K88 |  | 0.34 log10 µg/mL |
| CC[C@H](C)[C@H](NC(=O)[C@@H](CCCNC(=N)N)NC(=O)[C@H](CCCNC(=N)N)NC(=O)[C@@H](NC(=O)[C@H](Cc1c[nH]c2ccccc12)NC(=O)[C@H](CCCNC(=N)N)NC(=O)[C@@H]1CCCN1C(=O)[C@H](CCCNC(=N)N)NC(=O)[C@@H]1CCCN1C(=O)[C@H](CC(C)C)NC(=O)[C@H](Cc1ccc(O)cc1)NC(=O)[C@@H]1CCCN1C(=O)[C@@H]1CCCN1C(=O)[C@H](CCCCN)NC(=O)[C@H](CC(=O)O)NC(=O)[C@@H](N)C(C)C)C(C)C)C(=O)N[C@@H](Cc1ccc(O)cc1)C(=O)N[C@@H](CC(N)=O)C(=O)N[C@H](CCCNC(=N)N)C(N)=O | broth microdilution | BW25113 | 18 h, 37 °C, 25% MHB2 | 16 µg/mL |
| CC(C)Oc1c(NC(=O)c2ccc(NC(=O)C(CC(N)=O)NC(=O)c3cc(F)c(N=Nc4c(F)cccc4F)c(F)c3)cc2)ccc(C(=O)NN=Cc2ccc(C(=O)O)cc2)c1O (stereo not shown) |  | BW25113 | after 1 h irradiation at 450 nm | > 6.4 µg/mL |
| CC(C)C[C@H](NC(=O)[C@H](CCCNC(=N)N)NC(=O)[C@H](C)NC(=O)[C@H](CC(C)C)NC(=O)[C@H](CCCNC(=N)N)NC(=O)[C@H](C)NC(=O)[C@H](CCCCN)NC(=O)[C@H](CC(C)C)NC(=O)[C@H](CCCNC(=N)N)NC(=O)[C@H](Cc1ccc(O)cc1)NC(=O)[C@H](CC(C)C)NC(=O)[C@H](CCCNC(=N)N)NC(=O)[C@H](C)NC(=O)[C@H](CCCNC(=N)N)NC(=O)[C@H](CC(C)C)NC(=O)[C@H](CCCCN)NC(=O)[C@H](C)NC(=O)[C@H](CC(C)C)NC(=O)[C@H](CCCNC(=N)N)NC(=O)[C@H](C)NC(=O)[C@@H](N)CCCCN)C(N)=O |  | K12 | 24 h | 10.2 µM |
| CC[C@H](C)[C@H](NC(=O)[C@@H](CCCNC(=N)N)NC(=O)[C@H](CCCNC(=N)N)NC(=O)[C@@H]1CCCN1C(=O)[C@@H]1CCCN1C(=O)[C@H](CCCNC(=N)N)NC(=O)[C@@H]1CCCN1C(=O)[C@H](CCCNC(=N)N)NC(=O)[C@@H]1CCCN1C(=O)[C@H](Cc1ccccc1)NC(=O)[C@H](Cc1ccc(O)cc1)NC(=O)[C@@H]1CCCN1C(=O)[C@@H]1CCCN1C(=O)[C@H](CCCCN)NC(=O)[C@H](CC(=O)O)NC(=O)[C@@H](N)C(C)C)C(=O)N[C@@H](Cc1ccc(O)cc1)C(=O)N[C@@H](CC(N)=O)C(=O)N[C@H](CCCNC(=N)N)C(N)=O | broth microdilution | BW25113 | 18 h, 37 °C, 25% MHB2 | 16 µg/mL |
| CC[C@H](C)[C@H](NC(=O)[C@H](C)NC(=O)[C@@H](NC(=O)[C@H](CC(=O)O)NC(=O)[C@H](CCCCN)NC(=O)[C@H](CO)NC(=O)[C@@H](NC(=O)[C@H](CC(N)=O)NC(=O)[C@H](C)NC(=O)[C@@H](NC(=O)[C@H](CCC(=O)O)NC(=O)[C@H](CCCCN)NC(=O)[C@@H](NC(=O)[C@@H](NC(=O)[C@H](Cc1c[nH]cn1)NC(=O)[C@H](CCCCN)NC(=O)[C@@H](NC(=O)[C@H](CCCCN)NC(=O)[C@H](CCCCN)NC(=O)[C@@H](NC(=O)[C@H](CC(C)C)NC(=O)[C@H](CCCCN)NC(=O)[C@H](CC(N)=O)NC(=O)[C@H](Cc1ccccc1)NC(=O)[C@H](CCCNC(=N)N)NC(=O)[C@H](CCCCN)NC(=O)[C@H](CCCNC(=N)N)NC(=O)[C@H](Cc1ccccc1)NC(=O)CN)C(C)C)C(C)C)[C@@H](C)O)[C@@H](C)CC)[C@@H](C)O)C(C)C)C(C)C)C(=O)N[C@H](C(=O)N[C@@H](C)C(=O)NCC(=O)N[C@@H](CO)C(=O)NCC(=O)N[C@H](C(=O)N[C@@H](C)C(=O)N[C@H](C(=O)NCC(=O)N[C@@H](C)C(=O)N[C@@H](C)C(=O)N[C@@H](CCSC)C(N)=O)C(C)C)C(C)C)C(C)C | broth microdilution | D31, CAMHB |  | 4 µg/mL |
| CC[C@H](C)[C@H](NC(=O)[C@@H](CCCNC(=N)N)NC(=O)[C@H](CCCNC(=N)N)NC(=O)[C@@H]1CCCN1C(=O)[C@@H]1CCCN1C(=O)[C@H](CCCNC(=N)N)NC(=O)[C@@H]1CCCN1C(=O)[C@H](CCCNC(=N)N)NC(=O)[C@@H]1CCCN1C(=O)[C@H](CC(C)C)NC(=O)[C@H](Cc1ccc(O)cc1)NC(=O)[C@@H]1CCCN1C(=O)[C@@H]1CCCN1C(=O)[C@H](CCCCN)NC(=O)[C@H](Cc1c[nH]c2ccccc12)NC(=O)[C@@H](N)C(C)C)C(=O)N[C@@H](Cc1ccc(O)cc1)C(=O)N[C@@H](CC(N)=O)C(=O)N[C@H](CCCNC(=N)N)C(N)=O | broth microdilution | ATCC 25922 | 18 h, 37 °C, 25% MHB2 | 8 µg/mL |
| CC(C)C[C@@H]1NC(=O)[C@H](CCCCN)NC(=O)CNC(=O)[C@H]2CCCN2C(=O)[C@H](CCCCN)NC(=O)[C@H](CC(C)C)NC(=O)[C@H](CCCCN)NC(=O)[C@H](CC(C)C)NC(=O)[C@H](CCCCN)NC(=O)C(N)CCC=CCCCC(C(N)=O)NC(=O)[C@H](CCCCN)NC(=O)[C@H](CC(C)C)NC(=O)[C@H](CCCCN)NC1=O (stereo partly shown) | broth microdilution | ATCC 25922, Mueller-Hinton broth | 18 h, 37 °C | 8 µM |
| CC[C@H](C)[C@H](NC(=O)[C@@H](CCCNC(=N)N)NC(=O)[C@H](CCCNC(=N)N)NC(=O)[C@@H]1CCCN1C(=O)[C@@H]1CCCN1C(=O)[C@H](CCCNC(=N)N)NC(=O)[C@@H]1CCCN1C(=O)[C@H](CCCNC(=N)N)NC(=O)[C@@H]1CCCN1C(=O)[C@H](CC(C)C)NC(=O)[C@H](Cc1ccc(O)cc1)NC(=O)[C@H](Cc1ccccc1)NC(=O)[C@@H]1CCCN1C(=O)[C@H](CCCCN)NC(=O)[C@H](CC(=O)O)NC(=O)[C@@H](N)C(C)C)C(=O)N[C@@H](Cc1ccc(O)cc1)C(=O)N[C@@H](CC(N)=O)C(=O)N[C@H](CCCNC(=N)N)C(N)=O | broth microdilution | BW25113 | 18 h, 37 °C, 25% MHB2 | 16 µg/mL |
| CSCC[C@H](NC=O)C(=O)N[C@@H](CCCNC(=N)N)C(=O)N[C@H](C(=O)NCC(=O)N[C@@H](CC(N)=O)C(=O)N[C@@H](C)C(=O)N[C@@H](CC(N)=O)C(=O)NCC(=O)N1CCN(c2cc3c(cc2F)c(=O)c(C(=O)O)cn3C2CC2)CC1)[C@@H](C)O | multistep resistance selection | K-12 MG1655 | day 7 | 6.24 µM |
